Results from different studies.
Every numbered part comes from another study and shows a few of its results, in no order.
Sequence of UniProt P42336 (whole entry, unmodified, looked up): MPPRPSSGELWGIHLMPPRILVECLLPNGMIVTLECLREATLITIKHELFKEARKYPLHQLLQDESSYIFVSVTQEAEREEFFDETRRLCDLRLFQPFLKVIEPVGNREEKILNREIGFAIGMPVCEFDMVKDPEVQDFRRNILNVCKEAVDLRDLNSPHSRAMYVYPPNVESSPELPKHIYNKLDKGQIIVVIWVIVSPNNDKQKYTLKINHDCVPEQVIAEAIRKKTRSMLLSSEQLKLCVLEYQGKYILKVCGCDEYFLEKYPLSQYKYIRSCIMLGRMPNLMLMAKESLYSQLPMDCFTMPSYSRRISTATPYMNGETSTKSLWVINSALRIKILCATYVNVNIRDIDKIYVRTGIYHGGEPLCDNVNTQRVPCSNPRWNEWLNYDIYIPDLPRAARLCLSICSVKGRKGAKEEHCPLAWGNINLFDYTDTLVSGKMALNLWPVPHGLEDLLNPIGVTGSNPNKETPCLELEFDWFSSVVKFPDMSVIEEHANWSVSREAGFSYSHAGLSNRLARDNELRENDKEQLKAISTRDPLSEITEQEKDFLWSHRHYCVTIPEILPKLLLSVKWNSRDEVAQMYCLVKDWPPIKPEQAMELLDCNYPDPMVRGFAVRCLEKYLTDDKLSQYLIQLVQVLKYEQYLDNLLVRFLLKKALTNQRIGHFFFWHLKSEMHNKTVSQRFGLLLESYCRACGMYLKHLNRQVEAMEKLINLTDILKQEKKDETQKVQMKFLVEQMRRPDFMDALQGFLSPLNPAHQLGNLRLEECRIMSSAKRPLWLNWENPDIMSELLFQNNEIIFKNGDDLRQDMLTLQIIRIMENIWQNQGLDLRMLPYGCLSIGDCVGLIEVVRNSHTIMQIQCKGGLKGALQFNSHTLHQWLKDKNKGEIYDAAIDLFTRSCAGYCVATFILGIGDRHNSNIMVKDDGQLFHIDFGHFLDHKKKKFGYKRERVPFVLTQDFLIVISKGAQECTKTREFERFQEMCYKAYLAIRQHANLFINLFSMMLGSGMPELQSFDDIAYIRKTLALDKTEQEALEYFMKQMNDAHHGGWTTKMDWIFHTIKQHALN
Sequence of UniProt O75676 (whole entry, looked up): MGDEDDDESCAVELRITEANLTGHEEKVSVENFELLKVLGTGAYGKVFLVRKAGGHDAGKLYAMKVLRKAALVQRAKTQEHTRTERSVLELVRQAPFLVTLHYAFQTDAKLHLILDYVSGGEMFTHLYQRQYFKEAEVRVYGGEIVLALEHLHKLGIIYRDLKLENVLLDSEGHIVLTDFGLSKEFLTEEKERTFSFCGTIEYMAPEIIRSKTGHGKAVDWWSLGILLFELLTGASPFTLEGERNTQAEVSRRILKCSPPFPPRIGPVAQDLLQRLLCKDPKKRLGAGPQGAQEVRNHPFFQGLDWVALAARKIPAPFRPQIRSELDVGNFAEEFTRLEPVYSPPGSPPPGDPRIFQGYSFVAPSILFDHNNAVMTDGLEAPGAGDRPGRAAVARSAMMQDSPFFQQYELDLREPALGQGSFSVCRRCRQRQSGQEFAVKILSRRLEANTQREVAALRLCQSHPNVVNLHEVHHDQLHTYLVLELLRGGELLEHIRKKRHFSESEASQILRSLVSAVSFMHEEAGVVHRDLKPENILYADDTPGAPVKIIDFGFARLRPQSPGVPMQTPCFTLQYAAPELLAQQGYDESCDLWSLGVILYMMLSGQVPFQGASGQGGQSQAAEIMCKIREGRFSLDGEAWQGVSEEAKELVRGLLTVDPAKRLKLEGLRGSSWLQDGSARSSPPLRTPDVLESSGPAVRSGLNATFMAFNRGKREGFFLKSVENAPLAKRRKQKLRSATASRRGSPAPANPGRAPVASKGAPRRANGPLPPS
Sequence of UniProt Q8WTQ7 (whole entry, looked up): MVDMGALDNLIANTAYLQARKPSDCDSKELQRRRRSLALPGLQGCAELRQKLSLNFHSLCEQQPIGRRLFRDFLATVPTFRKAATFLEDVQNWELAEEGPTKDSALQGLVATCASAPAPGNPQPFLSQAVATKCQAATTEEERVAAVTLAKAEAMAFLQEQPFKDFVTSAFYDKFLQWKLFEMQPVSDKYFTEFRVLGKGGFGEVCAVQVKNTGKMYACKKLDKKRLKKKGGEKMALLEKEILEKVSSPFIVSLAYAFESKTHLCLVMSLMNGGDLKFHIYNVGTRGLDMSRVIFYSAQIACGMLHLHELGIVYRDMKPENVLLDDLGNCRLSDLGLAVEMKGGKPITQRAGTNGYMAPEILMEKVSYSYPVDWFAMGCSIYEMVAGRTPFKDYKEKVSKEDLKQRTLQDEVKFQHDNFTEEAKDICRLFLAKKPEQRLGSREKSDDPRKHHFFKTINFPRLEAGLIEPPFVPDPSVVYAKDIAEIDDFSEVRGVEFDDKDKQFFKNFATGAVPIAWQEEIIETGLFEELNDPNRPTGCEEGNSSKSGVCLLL
Sequence of UniProt Q16566 (whole entry, looked up): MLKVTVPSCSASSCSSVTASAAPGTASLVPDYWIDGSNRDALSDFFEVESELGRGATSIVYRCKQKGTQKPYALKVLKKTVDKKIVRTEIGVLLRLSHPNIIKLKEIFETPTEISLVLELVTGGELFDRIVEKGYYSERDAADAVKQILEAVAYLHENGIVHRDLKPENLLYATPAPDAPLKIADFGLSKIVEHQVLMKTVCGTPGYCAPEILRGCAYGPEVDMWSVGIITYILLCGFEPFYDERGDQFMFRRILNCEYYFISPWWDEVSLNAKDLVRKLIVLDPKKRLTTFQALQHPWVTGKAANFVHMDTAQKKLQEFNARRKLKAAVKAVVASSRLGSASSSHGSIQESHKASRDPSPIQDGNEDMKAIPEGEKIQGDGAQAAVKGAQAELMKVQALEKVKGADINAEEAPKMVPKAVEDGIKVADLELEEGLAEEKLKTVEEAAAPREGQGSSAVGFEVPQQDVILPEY
Sequence of UniProt Q8N568 (whole entry, looked up): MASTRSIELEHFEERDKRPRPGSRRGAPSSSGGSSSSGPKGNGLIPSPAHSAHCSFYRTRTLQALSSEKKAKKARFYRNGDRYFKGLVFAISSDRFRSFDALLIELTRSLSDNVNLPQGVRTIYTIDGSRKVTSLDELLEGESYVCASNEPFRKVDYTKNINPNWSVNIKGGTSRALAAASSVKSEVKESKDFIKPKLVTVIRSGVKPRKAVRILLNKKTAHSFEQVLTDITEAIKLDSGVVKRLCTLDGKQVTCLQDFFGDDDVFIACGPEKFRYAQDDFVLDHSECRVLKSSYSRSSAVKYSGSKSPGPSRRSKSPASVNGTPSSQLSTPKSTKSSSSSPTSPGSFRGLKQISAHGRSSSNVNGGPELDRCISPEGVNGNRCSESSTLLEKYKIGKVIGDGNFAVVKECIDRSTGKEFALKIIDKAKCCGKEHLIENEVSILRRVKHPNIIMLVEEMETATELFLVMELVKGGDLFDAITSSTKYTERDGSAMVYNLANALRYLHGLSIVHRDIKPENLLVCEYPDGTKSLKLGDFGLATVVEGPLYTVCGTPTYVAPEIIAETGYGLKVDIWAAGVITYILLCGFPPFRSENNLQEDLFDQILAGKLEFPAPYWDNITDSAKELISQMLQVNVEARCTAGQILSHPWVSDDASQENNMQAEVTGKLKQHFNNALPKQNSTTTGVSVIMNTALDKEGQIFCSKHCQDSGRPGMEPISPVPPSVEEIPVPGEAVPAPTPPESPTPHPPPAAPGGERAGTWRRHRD
Sequence of UniProt P51956 (whole entry, looked up): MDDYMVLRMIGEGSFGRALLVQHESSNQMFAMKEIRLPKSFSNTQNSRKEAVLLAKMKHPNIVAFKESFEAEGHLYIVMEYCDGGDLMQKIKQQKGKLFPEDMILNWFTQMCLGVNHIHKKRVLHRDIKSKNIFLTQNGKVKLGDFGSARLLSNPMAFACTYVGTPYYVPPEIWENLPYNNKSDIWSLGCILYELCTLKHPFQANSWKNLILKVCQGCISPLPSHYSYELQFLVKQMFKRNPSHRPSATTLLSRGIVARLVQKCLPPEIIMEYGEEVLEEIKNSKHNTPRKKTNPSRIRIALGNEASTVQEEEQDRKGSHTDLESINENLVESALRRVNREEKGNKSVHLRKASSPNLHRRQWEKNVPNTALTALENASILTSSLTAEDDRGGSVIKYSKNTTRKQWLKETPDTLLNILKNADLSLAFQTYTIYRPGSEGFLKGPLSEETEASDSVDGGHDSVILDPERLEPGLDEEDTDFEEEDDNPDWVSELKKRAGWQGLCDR
Sequence of UniProt Q00526 (whole entry, looked up): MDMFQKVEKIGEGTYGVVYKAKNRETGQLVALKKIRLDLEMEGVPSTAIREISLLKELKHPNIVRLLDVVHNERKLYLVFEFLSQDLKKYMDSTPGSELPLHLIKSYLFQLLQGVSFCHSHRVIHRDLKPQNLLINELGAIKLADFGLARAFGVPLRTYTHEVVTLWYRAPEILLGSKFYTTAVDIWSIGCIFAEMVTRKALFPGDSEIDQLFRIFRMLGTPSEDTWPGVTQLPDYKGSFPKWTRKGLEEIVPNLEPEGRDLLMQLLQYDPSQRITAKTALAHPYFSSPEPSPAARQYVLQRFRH

Study 1
Target: Calcium/calmodulin-dependent protein kinase type II subunit alpha (CAMK2A, Homo sapiens, UniProt Q9UQM7)
Sequence of UniProt Q9UQM7 (whole entry, looked up): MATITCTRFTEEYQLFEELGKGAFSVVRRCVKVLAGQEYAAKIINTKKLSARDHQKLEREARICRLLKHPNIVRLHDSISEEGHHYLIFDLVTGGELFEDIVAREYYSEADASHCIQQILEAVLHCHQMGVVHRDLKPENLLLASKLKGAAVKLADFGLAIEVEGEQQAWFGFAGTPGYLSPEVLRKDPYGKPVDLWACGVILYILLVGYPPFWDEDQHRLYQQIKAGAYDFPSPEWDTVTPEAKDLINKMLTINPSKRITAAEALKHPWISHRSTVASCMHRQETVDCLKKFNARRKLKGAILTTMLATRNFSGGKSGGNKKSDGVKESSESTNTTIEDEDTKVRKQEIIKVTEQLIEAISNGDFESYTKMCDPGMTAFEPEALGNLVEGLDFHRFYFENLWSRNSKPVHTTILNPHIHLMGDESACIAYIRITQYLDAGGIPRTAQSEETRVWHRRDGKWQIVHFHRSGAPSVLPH
Read-out: enzyme activity
Action: inhibitor
Concentration: 10 µM
Compound	inhibition [%]
N[C@H](CO)C(=O)O	-7
CC1(C)O[C@@H]2C[C@H]3[C@@H]4C[C@H](F)C5=CC(=O)C=C[C@]5(C)[C@H]4[C@@H](O)C[C@]3(C)[C@]2(C(=O)CO)O1	-5
CO[C@H]1/C=C/O[C@@]2(C)Oc3c(C)c(O)c4c(O)c(cc(O)c4c3C2=O)NC(=O)/C(C)=C\C=C\[C@H](C)[C@H](O)[C@@H](C)[C@@H](O)[C@@H](C)[C@H](OC(C)=O)[C@@H]1C	-11
O=c1cc(-c2ccc(O)c(O)c2)oc2c([C@@H]3O[C@H](CO)[C@@H](O)[C@H](O)[C@H]3O[C@H]3O[C@@H](CO)[C@@H](O)[C@@H](O)[C@@H]3O)c(O)cc(O)c12	-21
OCc1cccc2ccccc12	47
C[C@@H]1[C@H](O)[C@@H](C)/C=C/C=C/C=C/C=C/C=C/C=C/C=C/[C@H](O[C@@H]2O[C@H](C)[C@@H](O)[C@H](N)[C@@H]2O)C[C@@H]2O[C@](O)(C[C@@H](O)C[C@@H](O)[C@H](O)CC[C@@H](O)C[C@@H](O)CC(=O)O[C@H]1C)C[C@H](O)[C@H]2C(=O)O	-5
CO/N=C(\C(=O)N[C@@H]1C(=O)N2C(C(=O)[O-])=C(C[n+]3ccn4ncccc43)CS[C@H]12)c1nsc(N)n1	-7
NCCc1cc[nH]n1	-4

Study 2
SMILES: CCOC(=O)c1cc2cc(-c3cc(C(=O)NCc4ccc(C(=O)O)cc4)nn3C)ccc2[nH]1
Read-out: cell-free assay
Technique: competition with immobilised ligand
Concentration: 0.1 µM
target	remaining binding
Cyclin-dependent kinase 3 (CDK3, Homo sapiens, UniProt Q00526)	43%
Phosphatidylinositol 4,5-bisphosphate 3-kinase catalytic subunit alpha isoform (PIK3CA, Homo sapiens, UniProt P42336, E542K)	96%
Rhodopsin kinase GRK7 (GRK7, Homo sapiens, UniProt Q8WTQ7)	86%
Serine/threonine-protein kinase BRSK1 (BRSK1, Homo sapiens, UniProt Q8TDC3)	100%
Serine/threonine-protein kinase Nek1 (NEK1, Homo sapiens, UniProt Q96PY6)	100%
Proto-oncogene tyrosine-protein kinase receptor Ret (RET, Homo sapiens, UniProt P07949, V804M)	76%
Phosphatidylinositol 4,5-bisphosphate 3-kinase catalytic subunit alpha isoform (PIK3CA, Homo sapiens, UniProt P42336, E545K)	100%

Study 3
Compound: Cc1nc(Nc2ncc(C(=O)Nc3c(C)cccc3Cl)s2)cc(N2CCN(CCO)CC2)n1
Read-out: enzyme activity
Action: inhibitor
Concentration: 0.5 µM
Baseline: control
target	remaining activity [%]
Hepatocyte growth factor receptor (MET, Homo sapiens, UniProt P08581)	88.1
Calcium/calmodulin-dependent protein kinase type IV (CAMK4, Homo sapiens, UniProt Q16566)	91.3
Dual specificity mitogen-activated protein kinase kinase 1 (MAP2K1, Homo sapiens, UniProt Q02750)	120
Dual specificity protein kinase CLK4 (CLK4, Homo sapiens, UniProt Q9HAZ1)	91.4
Serine/threonine-protein kinase DCLK2 (DCLK2, Homo sapiens, UniProt Q8N568)	99.8
Serine/threonine-protein kinase PAK 3 (PAK3, Homo sapiens, UniProt O75914)	105
Myosin-IIIb (MYO3B, Homo sapiens, UniProt Q8WXR4)	84.8
Serine/threonine-protein kinase tousled-like 2 (TLK2, Homo sapiens, UniProt Q86UE8)	94.4
Misshapen-like kinase 1 (MINK1, Homo sapiens, UniProt Q8N4C8)	46.5
Tyrosine-protein kinase TXK (TXK, Homo sapiens, UniProt P42681)	1.37
RAC-beta serine/threonine-protein kinase (AKT2, Homo sapiens, UniProt P31751)	94.1
Ribosomal protein S6 kinase alpha-4 (RPS6KA4, Homo sapiens, UniProt O75676)	107
Serine/threonine-protein kinase Nek3 (NEK3, Homo sapiens, UniProt P51956)	94.1
Cyclin-dependent kinase 9, with cyclin K (CDK9, Homo sapiens, UniProt P50750)	104

Study 4
SMILES: C=CC(=O)N1CCC[C@@H](n2nc(-c3ccc(Oc4ccccc4)cc3)c3c(N)ncnc32)C1
Action: inhibitor
Concentration: 1 µM
target	read-out	inhibition [%]
Receptor-type tyrosine-protein kinase FLT3 (FLT3, Homo sapiens, UniProt P36888)	–	63
Receptor-type tyrosine-protein kinase FLT3 (FLT3, Homo sapiens, UniProt P36888, D835V/ITD)	–	26
3-phosphoinositide-dependent protein kinase 1 (PDPK1, Homo sapiens, UniProt O15530)	enzyme activity	0
Serine/threonine-protein kinase TAO3 (TAOK3, Homo sapiens, UniProt Q9H2K8)	enzyme activity	22
Tyrosine-protein kinase ABL1, phosphorylated (ABL1, Homo sapiens, UniProt P00519)	–	35
cGMP-dependent protein kinase 1 (PRKG1, Homo sapiens, UniProt Q13976)	enzyme activity	0

Some of these lines once more (study 4):
target	read-out	inhibition [%]
Receptor-type tyrosine-protein kinase FLT3 (FLT3, Homo sapiens, UniProt P36888, D835V/ITD)	–	26
cGMP-dependent protein kinase 1 (PRKG1, Homo sapiens, UniProt Q13976)	enzyme activity	0
Receptor-type tyrosine-protein kinase FLT3 (FLT3, Homo sapiens, UniProt P36888)	–	63
3-phosphoinositide-dependent protein kinase 1 (PDPK1, Homo sapiens, UniProt O15530)	enzyme activity	0
